Measurements from different studies.
Compare with care: the assays were run in different laboratories. Values after ≈ are worked out from the molar mass of the structure shown.
UniProt P11229, sequence (whole entry, looked up): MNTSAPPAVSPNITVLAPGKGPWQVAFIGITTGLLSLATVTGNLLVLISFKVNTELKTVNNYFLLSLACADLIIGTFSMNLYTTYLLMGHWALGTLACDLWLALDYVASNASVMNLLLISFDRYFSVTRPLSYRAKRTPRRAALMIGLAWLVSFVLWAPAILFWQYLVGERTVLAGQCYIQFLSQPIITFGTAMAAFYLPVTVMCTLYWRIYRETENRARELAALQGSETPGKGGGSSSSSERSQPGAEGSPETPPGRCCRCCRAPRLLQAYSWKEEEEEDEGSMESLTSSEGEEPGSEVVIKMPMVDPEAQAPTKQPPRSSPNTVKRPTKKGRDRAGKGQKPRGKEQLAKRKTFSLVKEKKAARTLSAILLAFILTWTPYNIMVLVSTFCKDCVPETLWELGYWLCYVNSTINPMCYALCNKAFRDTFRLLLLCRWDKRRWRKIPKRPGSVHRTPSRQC
UniProt Q9UPE1, sequence (whole entry, looked up): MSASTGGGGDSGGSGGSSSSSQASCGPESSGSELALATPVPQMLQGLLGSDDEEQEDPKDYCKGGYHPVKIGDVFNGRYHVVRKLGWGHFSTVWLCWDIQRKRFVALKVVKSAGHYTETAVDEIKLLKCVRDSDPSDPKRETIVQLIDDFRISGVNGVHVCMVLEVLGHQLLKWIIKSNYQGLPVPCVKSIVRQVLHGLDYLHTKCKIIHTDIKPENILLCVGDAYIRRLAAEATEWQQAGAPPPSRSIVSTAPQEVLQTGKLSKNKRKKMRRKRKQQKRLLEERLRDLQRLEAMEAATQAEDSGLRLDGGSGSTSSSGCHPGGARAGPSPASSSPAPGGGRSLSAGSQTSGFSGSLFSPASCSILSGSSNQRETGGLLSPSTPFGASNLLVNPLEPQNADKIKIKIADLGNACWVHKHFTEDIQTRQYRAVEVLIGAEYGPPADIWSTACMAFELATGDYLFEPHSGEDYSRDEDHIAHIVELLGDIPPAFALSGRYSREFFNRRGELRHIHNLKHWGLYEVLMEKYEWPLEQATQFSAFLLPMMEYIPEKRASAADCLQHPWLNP
UniProt O33336, sequence (whole entry, looked up): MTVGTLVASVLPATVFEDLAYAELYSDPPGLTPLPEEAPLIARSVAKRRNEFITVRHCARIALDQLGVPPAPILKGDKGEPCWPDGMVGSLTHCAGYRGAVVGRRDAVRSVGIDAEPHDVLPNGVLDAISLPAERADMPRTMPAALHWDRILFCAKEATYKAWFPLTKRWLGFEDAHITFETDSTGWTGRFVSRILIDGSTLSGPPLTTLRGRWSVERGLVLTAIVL
UniProt Q9UPZ9, sequence (whole entry, looked up): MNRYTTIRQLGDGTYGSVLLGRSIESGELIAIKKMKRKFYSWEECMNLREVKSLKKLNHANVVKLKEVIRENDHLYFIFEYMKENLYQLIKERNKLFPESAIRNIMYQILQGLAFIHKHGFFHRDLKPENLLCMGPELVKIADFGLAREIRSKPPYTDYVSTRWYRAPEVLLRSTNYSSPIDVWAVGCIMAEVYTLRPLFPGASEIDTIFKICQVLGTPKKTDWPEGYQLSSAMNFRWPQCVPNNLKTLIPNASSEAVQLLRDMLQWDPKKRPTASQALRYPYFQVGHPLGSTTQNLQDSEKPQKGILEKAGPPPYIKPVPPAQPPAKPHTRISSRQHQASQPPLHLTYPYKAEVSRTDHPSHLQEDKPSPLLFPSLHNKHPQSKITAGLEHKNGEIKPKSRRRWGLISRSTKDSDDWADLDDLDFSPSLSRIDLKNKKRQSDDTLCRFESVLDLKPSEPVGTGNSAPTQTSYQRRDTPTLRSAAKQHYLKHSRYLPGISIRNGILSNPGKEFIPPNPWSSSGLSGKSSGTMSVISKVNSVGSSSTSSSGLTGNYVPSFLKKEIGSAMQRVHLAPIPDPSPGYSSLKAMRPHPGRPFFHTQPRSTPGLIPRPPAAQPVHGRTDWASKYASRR
UniProt Q9Y243, sequence (whole entry, looked up): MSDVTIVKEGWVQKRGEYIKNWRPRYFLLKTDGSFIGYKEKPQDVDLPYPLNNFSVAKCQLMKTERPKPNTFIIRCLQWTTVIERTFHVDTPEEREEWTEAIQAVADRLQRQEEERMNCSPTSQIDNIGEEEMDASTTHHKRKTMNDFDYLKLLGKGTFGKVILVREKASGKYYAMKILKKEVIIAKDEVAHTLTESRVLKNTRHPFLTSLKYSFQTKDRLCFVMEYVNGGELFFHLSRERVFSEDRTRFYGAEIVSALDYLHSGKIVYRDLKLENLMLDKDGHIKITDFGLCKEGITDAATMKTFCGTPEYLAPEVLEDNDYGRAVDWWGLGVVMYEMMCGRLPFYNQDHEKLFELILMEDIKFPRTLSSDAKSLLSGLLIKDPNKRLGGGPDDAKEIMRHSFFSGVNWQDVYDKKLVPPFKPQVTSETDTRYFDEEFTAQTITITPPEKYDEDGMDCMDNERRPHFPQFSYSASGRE

Compound	target or system	assay	system	conditions	measurement	result
Nc1ncc(-c2nc(N3CCOCC3)nc(N3CCOCC3)n2)c(C(F)F)n1	Muscarinic acetylcholine receptor M1 (CHRM1, Homo sapiens, UniProt P11229)	cell-free assay, radioligand	–	10 µM	remaining signal	111%
COC(=O)c1cc(-c2cccc(NC(=O)Nc3cccc(C#N)c3)c2)on1	Acinetobacter baumannii	microbial growth, broth dilution	BAA1605	–	MIC	> 64 µg/mL
CO/C=C(/C(=O)OC)c1ccccc1Oc1cc(Oc2ccccc2C#N)ncn1	Sclerotinia sclerotiorum	microbial growth	–	50 µg/mL	inhibition	74.2%
COC(=O)c1cc(-c2cccc(NC(=S)Nc3cc(C(F)(F)F)cc(C(F)(F)F)c3)c2)on1	Escherichia coli	microbial growth, broth dilution	ATCC25922	–	MIC	> 64 µg/mL
C[C@@H](O)[C@@H]1NC(=O)[C@H](Cc2ccccc2)NC(=O)[C@@H](Cc2ccccc2)NC(=O)[C@H]([C@@H](C)O)NC(=O)[C@@H](CCCCN)NC(=O)[C@H](CC(=O)O)NC1=O	Balamuthia mandrillaris	parasite growth, ATP luminescence	–	–	IC90	> 16 µg/mL
Cc1nn(C)cc1-c1nc2c(N3CCN(Cc4ccc(Cl)cc4)CC3)c(Cl)cnc2[nH]1	SRSF protein kinase 3 (SRPK3, Homo sapiens, UniProt Q9UPE1)	binding, competition with immobilised ligand	–	1 µM	remaining binding	39%
O=C1c2cc(Cl)ccc2NS(=O)(=O)N1Cc1cccnc1	4'-phosphopantetheinyl transferase PptT (Mycobacterium tuberculosis, UniProt O33336)	enzyme activity, inhibitor, FP	–	–	IC50	> 100 µM
CC(C)[C@@H]1NC(=O)[C@@H](CCCCN)NC(=O)[C@H](CCCN)NC(=O)[C@@H](CC(=O)O)NC(=O)[C@H](C)NC(=O)[C@H](Cc2c[nH]c3ccccc23)NC(=O)[C@@H](Cc2ccccc2)NC1=O	Balamuthia mandrillaris	parasite growth, ATP luminescence	–	–	IC90	> 16 µg/mL
C[C@@H]1[C@H](O)[C@@H](C)/C=C/C=C/C=C/C=C/C=C/C=C/C=C/[C@H](O[C@@H]2O[C@H](C)[C@@H](O)[C@H](N)[C@@H]2O)C[C@@H]2O[C@](O)(C[C@@H](O)C[C@@H](O)[C@H](O)CC[C@@H](O)C[C@@H](O)CC(=O)O[C@H]1C)C[C@H](O)[C@H]2C(=O)O	Leishmania donovani	parasite growth, resazurin	–	72 h, promastigote	IC90	0.33 µg/mL (≈ 0.357 µM)
COC(=O)c1cc(-c2cccc(NC(=O)Nc3cccc(F)c3)c2)on1	Mycobacteroides abscessus	microbial growth, broth dilution	ATCC19977	48 h	MIC	> 64 µg/mL
C#Cc1ccc2c(c1)C(c1ccccn1)=NCc1c(-c3cnco3)ncn1-2.Cl	–	–	water	90 min, 37 °C	kinetic solubility	4900 µg/mL
O=C(NNc1ccc(Cl)cc1)c1nnc(C23CC4CC(CC(C4)C2)C3)o1	Fusarium oxysporum	microbial growth	–	–	EC50	3.74 µg/mL (≈ 10 µM)
Cc1ccccc1C=Nc1ccc(SCc2cc(=O)c(O)co2)cc1	–	ABTS scavenging, absorbance	–	–	IC50	36.4 µM
COC(=O)c1cc(-c2cccc(NC(=S)Nc3ccc(F)c(Cl)c3)c2)on1	Mycobacteroides abscessus	microbial growth, broth dilution	ATCC19977	48 h	MIC	> 64 µg/mL
CC(C)[C@@H]1NC(=O)[C@@H](CCCCN)NC(=O)[C@H](CCCCN)NC(=O)[C@@H](CCCN)NC(=O)[C@H](C)NC(=O)[C@H](Cc2c[nH]c3ccccc23)NC(=O)[C@@H](Cc2ccccc2)NC1=O	Balamuthia mandrillaris	parasite growth, ATP luminescence	–	–	IC90	> 16 µg/mL
C#Cc1cccc(O)c1C=NNC(=O)c1ccc(Br)cc1Br	Aspergillus fumigatus	microbial growth	–	48 h, pH 6.5	MIC80	8 µg/mL (≈ 19 µM)
C[C@H]1NC(=O)[C@H](Cc2ccccc2)NC(=O)[C@@H](Cc2ccccc2)NC(=O)[C@H](Cc2ccccc2)NC(=O)[C@@H](CCCN)NC(=O)[C@H](CCCN)NC1=O	Balamuthia mandrillaris	parasite growth, ATP luminescence	–	–	IC50	10.2 µM
COC(=O)c1cc(-c2cccc(NC(=O)Nc3ccccc3OC)c2)on1	Escherichia coli	microbial growth, broth dilution	ATCC25922	–	MIC	> 64 µg/mL
O=C(NNc1ccc(F)c(F)c1)c1nnc(CC23CC4CC(CC(C4)C2)C3)o1	Fusarium oxysporum	microbial growth	–	–	EC50	7.43 µg/mL (≈ 19.1 µM)
C#Cc1ccc(C(=O)NN=Cc2cccc(C#C)c2O)cc1	Aspergillus fumigatus	microbial growth	–	48 h, pH 6.5	MIC80	4 µg/mL (≈ 13.9 µM)
COC(=O)c1cc(-c2cccc(NC(=O)Nc3ccc(C(F)(F)F)cc3)c2)on1	Mycobacteroides abscessus	microbial growth, broth dilution	ATCC19977	48 h	MIC	> 64 µg/mL
CC[C@H](C)[C@H](NC(=O)[C@H](Cc1ccccc1)NC(=O)[C@H](CCC(=O)O)NC(=O)[C@H](CCCNC(=N)N)NC(=O)[C@H](C)NC(=O)[C@H](C)NC(=O)[C@H](CCC(N)=O)NC(=O)[C@H](CCC(=O)O)NC(=O)[C@H](CCC(=O)O)NC(=O)[C@H](CC(C)C)NC(=O)[C@H](Cc1ccc(O)cc1)NC(=O)[C@H](CO)NC(=O)[C@H](CO)NC(=O)[C@@H](NC(=O)[C@H](CC(=O)O)NC(=O)[C@H](CO)NC(=O)[C@@H](NC(=O)[C@H](Cc1ccccc1)NC(=O)[C@@H](NC(=O)CNC(=O)[C@H](CCC(=O)O)NC(=O)[C@H](C)NC(=O)CCc1c[nH]cn1)[C@@H](C)O)[C@@H](C)O)C(C)C)C(=O)N[C@@H](C)C(=O)N[C@@H](Cc1c[nH]c2ccccc12)C(=O)N[C@@H](CC(C)C)C(=O)N[C@H](C(=O)N[C@@H](CCCNC(=N)N)C(=O)NCC(=O)N[C@@H](CCCNC(=N)N)C(=O)N[C@@H](CCCCNC(=O)COCCOCCNC(=O)COCCOCCNC(=O)CC[C@H](NC(=O)CCCCCCCCCCCCCCCCC(=O)O)C(=O)O)C(=O)NCC(=O)NCC(=O)N[C@@H](CO)C(=O)N[C@@H](CCCCNc1c(NCCCCCN(O)C(=O)CCC(=O)NCCCCCN(O)C(=O)CCC(=O)NCCCCCN(O)C(C)=O)c(=O)c1=O)C(=O)O)C(C)C	–	–	rat, plasma	subcutaneous, 20 nmol/kg	CL/F	0.234 mL/min/kg

Compound	target or system	assay	system	conditions	measurement	result
COC(=O)c1cc(-c2cccc(NC(=O)Nc3ccc(F)cc3F)c2)on1	Mycobacteroides abscessus	microbial growth, broth dilution	ATCC19977	48 h	MIC	> 64 µg/mL
C#Cc1ccc(C=NNC(=O)c2ccc(Br)c(O)c2)c(O)c1	Aspergillus fumigatus	microbial growth	–	48 h, pH 6.5	MIC80	> 32 µg/mL
O=C(NNc1cc(F)ccc1F)c1nnc(CC23CC4CC(CC(C4)C2)C3)o1	Sclerotinia sclerotiorum	microbial growth	–	50 µg/mL	inhibition	100%
COc1ccc(Nc2nn3c(-c4ccccc4)ccnc3c2C(=O)Nc2ccc(Cl)cc2)cc1	Caco-2	cell growth or viability, MTT	–	12.5 µg/mL, 48 h, serum-free	viability	40.4%
CC(C)[C@@H]1NC(=O)[C@@H](CCCCN)NC(=O)[C@H]([C@@H](C)O)NC(=O)[C@H](Cc2ccccc2)NC(=O)[C@@H](Cc2ccccc2)NC(=O)[C@H]([C@@H](C)O)NC(=O)[C@@H](CCCN)NC1=O	Balamuthia mandrillaris	parasite growth, ATP luminescence	–	–	IC50	> 16 µg/mL
Cc1sc2c(c1C)C(c1ccc(Cl)cc1)=N[C@@H](CC(=O)OC(C)(C)C)c1nnc(C)n1-2	OCI-Ly1	cell growth or viability, ATP luminescence	–	0.5 µM, 5 days	viability	20.5%
O=C(NNc1ccc(F)c(F)c1)c1nnc(C23CC4CC(CC(C4)C2)C3)o1	Fusarium oxysporum	microbial growth	–	–	EC50	5.95 µg/mL (≈ 15.9 µM)
Cn1cc2c3c1C(=O)C(N)=CC3=NCC2	Babesia divergens	parasite growth, SYBR Green	–	60 h, blood stage	IC50	2.37 µM
Nc1nc(N)nc(Nc2ccc([As]3SCC(CO)S3)cc2)n1 (centres unmarked)	Trypanosoma brucei	parasite growth, resazurin	RHODESIENSE STIB900	–	IC50	0.03 µM
N.N.[Cl][Pt][Cl]	OCI-Ly3	cell growth or viability, ATP luminescence	–	10 µM, 72 h	inhibition	100%
[2H]c1c([2H])c([C@]2([2H])CCCN2C(=O)C(C)(C)Oc2ccc3cn[nH]c3c2)c([2H])c([2H])c1C([2H])([2H])[2H]	RAC-gamma serine/threonine-protein kinase (AKT3, Homo sapiens, UniProt Q9Y243)	binding, competition with immobilised ligand	–	1 µM	remaining binding	98%
COc1ccc(Nc2nn3c(-c4ccccc4)ccnc3c2C(=O)Nc2ccccc2)cc1	A549	cell growth or viability, MTT	–	50 µg/mL, 48 h, serum-free	viability	47.7%
CC(C)[C@H]1NC(=O)[C@H](CCCNC(=N)N)NC(=O)CNC(=O)[C@@H](Cc2c[nH]c3ccccc23)NC(=O)[C@H](CCCCN)NC(=O)[C@@H](CCCN)NC1=O	Balamuthia mandrillaris	parasite growth, ATP luminescence	–	–	IC50	> 16 µg/mL
COc1ncccc1-c1cnn2ccc(N3CCN(C(=O)OC(C)C)CC3)nc12	Serine/threonine-protein kinase ICK (CILK1, Homo sapiens, UniProt Q9UPZ9)	binding, competition with immobilised ligand	–	1 µM	remaining binding	100%
Oc1c(Br)cc(Br)cc1-c1[nH]c(Br)c(Br)c1Br	Escherichia coli	microbial growth	K12, MG1655	–	MIC	10.7 µM
O=C(NNc1cccc(Cl)c1)c1nnc(C23CC4CC(CC(C4)C2)C3)o1	Fusarium oxysporum	microbial growth	–	–	EC50	6.22 µg/mL (≈ 16.7 µM)
Nc1ncnc2c([C@@H]3N[C@H](CO)[C@@H](O)[C@H]3O)c[nH]c12	human respiratory syncytial virus	viral replication, inhibitor	MA104	2.8 µM	inhibition	2%
NCCCC[C@@H]1NC(=O)[C@@H](CCCN)NC(=O)[C@@H](Cc2ccccc2)NC(=O)[C@H](Cc2ccccc2)NC(=O)CNC1=O	Balamuthia mandrillaris	parasite growth, ATP luminescence	–	–	IC90	> 16 µg/mL
COC(=O)c1cc(-c2cccc(NC(=O)Nc3ccccc3)c2)on1	Mycobacteroides abscessus	microbial growth, broth dilution	ATCC19977	48 h	MIC	> 64 µg/mL
CC(=O)N1CCN(c2ccc(OCC3COC(Cn4ccnc4)(c4ccc(Cl)cc4Cl)O3)cc2)CC1 (centres unmarked)	Candida albicans	microbial killing, broth dilution	SP3902	48 h	MFC	> 64 µM
CC(C)[C@@H]1NC(=O)[C@@H](CCCCN)NC(=O)[C@H](CCCN)NC(=O)[C@@H](CC(=O)O)NC(=O)[C@H](C)NC(=O)[C@H](Cc2c[nH]c3ccccc23)NC(=O)[C@@H](Cc2c[nH]c3ccccc23)NC1=O	Balamuthia mandrillaris	parasite growth, ATP luminescence	–	–	IC90	> 16 µg/mL
C#Cc1cccc(C=NNC(=O)c2ccc(Br)cc2Br)c1O	Aspergillus fumigatus	microbial growth	–	48 h, pH 6.5	MIC80	1 µg/mL (≈ 2.37 µM)
